Results pooled from the literature.
Protocols differ between the studies behind these lines. ± gives the spread as reported.
Chain of UniProt P03023 (whole entry, unmodified, looked up): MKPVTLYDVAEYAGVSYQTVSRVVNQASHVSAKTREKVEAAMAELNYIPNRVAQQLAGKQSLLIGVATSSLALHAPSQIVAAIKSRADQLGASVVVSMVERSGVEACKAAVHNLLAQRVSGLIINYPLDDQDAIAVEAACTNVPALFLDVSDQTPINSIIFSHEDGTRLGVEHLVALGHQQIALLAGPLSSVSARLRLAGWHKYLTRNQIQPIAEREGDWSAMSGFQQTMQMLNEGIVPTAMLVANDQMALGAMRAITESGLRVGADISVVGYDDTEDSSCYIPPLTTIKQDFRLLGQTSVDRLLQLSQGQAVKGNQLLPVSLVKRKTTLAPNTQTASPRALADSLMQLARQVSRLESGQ
Chain of UniProt P41595 (whole entry, looked up): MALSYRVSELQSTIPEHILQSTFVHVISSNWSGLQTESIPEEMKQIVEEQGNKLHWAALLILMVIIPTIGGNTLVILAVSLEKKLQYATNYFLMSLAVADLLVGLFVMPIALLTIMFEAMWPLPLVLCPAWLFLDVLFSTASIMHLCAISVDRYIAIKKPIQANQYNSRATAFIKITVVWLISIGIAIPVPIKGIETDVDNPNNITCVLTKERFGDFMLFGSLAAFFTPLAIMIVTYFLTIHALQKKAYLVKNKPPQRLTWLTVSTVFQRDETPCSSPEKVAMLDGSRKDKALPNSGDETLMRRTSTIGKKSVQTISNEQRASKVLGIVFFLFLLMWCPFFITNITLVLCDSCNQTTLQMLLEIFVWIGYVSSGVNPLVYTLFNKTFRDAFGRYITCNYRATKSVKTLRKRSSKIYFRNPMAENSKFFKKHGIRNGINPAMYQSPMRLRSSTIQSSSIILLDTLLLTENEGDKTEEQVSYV
Chain of UniProt Q14831 (whole entry, looked up): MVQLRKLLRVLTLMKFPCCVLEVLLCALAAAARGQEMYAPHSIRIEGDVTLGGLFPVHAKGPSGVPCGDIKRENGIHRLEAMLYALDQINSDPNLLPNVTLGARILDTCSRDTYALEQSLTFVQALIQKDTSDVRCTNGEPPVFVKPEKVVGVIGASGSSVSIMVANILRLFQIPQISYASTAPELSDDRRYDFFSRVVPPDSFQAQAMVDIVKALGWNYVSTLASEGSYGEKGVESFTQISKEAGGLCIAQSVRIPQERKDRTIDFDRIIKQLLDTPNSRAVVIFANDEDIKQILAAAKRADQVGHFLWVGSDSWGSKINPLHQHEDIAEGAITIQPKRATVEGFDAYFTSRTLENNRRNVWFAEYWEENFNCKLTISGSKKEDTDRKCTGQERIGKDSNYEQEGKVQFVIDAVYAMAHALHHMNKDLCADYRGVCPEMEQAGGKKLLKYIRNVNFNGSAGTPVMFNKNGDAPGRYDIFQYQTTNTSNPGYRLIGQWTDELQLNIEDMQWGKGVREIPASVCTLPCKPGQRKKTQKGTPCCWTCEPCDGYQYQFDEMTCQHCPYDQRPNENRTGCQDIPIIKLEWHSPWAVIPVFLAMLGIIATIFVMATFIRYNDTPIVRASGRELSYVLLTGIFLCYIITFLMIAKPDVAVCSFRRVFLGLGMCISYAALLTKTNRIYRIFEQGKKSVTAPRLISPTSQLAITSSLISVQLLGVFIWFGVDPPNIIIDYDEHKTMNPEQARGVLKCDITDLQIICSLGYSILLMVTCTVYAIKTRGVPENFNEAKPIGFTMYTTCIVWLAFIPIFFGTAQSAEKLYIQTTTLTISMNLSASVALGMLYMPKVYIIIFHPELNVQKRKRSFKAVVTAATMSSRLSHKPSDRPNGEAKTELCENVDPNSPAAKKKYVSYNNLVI
Chain of UniProt P07550 (whole entry, looked up): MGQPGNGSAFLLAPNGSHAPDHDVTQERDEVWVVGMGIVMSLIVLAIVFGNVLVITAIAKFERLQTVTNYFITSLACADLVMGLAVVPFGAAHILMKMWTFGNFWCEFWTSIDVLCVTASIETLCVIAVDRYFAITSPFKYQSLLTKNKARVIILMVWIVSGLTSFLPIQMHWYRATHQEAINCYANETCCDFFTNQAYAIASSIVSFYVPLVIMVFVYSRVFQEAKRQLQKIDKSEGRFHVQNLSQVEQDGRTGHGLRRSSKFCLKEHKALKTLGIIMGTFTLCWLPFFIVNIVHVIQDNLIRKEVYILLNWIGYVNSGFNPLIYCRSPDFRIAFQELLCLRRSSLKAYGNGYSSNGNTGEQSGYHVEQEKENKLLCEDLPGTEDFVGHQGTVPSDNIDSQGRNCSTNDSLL
Chain of UniProt Q8NER1 (whole entry, looked up): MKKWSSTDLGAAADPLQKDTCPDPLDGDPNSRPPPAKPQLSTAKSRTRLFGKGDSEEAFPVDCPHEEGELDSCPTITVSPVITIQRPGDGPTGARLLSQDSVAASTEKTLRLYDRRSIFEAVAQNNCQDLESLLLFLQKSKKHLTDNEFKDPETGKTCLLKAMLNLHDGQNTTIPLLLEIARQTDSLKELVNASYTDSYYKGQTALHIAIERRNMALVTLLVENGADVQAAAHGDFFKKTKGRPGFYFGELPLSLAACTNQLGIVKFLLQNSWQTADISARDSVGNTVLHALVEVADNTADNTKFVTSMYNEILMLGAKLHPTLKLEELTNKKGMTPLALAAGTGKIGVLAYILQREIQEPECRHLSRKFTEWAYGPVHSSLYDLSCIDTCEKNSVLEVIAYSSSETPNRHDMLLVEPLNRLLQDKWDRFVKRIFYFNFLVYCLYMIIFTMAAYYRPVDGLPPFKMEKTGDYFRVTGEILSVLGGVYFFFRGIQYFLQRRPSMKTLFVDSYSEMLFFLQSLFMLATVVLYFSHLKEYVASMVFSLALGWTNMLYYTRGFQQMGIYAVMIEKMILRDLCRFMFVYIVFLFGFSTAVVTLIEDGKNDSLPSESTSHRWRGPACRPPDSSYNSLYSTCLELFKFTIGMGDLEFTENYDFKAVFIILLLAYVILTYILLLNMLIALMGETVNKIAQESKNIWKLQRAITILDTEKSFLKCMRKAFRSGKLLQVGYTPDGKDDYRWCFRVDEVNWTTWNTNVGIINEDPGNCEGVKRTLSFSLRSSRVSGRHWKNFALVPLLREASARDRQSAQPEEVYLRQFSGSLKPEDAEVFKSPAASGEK
Chain of UniProt O75469 (whole entry, looked up): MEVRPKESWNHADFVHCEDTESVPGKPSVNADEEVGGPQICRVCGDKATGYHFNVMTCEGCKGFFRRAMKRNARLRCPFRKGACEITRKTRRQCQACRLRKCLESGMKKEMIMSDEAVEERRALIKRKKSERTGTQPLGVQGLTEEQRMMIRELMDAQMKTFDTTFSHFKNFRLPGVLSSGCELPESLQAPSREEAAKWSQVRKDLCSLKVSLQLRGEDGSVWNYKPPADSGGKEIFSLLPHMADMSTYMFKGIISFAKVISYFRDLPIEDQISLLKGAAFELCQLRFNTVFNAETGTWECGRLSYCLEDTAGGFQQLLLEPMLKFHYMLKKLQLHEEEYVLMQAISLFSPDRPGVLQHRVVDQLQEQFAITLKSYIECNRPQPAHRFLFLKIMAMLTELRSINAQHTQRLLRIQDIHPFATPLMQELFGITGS
Chain of UniProt O15303 (whole entry, looked up): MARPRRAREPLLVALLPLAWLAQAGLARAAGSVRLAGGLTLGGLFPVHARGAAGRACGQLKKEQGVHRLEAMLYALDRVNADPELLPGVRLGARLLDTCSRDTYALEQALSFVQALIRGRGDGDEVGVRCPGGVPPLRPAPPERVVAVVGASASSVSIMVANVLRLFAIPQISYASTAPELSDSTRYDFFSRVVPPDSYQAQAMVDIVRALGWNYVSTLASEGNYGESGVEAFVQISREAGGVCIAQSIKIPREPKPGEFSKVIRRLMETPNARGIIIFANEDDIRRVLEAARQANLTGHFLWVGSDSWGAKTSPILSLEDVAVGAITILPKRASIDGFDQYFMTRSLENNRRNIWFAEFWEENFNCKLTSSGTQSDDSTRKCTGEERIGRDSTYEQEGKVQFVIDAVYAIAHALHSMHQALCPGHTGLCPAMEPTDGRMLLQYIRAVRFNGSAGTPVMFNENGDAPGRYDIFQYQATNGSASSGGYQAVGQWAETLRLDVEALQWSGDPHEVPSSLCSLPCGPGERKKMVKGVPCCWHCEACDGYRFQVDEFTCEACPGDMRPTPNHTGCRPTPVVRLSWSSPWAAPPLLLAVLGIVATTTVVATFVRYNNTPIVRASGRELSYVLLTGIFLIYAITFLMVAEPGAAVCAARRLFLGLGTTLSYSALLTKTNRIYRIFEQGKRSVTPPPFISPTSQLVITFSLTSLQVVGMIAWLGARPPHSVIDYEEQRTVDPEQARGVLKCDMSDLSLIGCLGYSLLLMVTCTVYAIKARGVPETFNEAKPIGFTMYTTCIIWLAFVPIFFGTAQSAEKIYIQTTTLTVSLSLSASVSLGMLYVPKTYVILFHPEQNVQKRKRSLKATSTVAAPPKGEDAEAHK
Chain of UniProt Q8IZD6 (whole entry, looked up): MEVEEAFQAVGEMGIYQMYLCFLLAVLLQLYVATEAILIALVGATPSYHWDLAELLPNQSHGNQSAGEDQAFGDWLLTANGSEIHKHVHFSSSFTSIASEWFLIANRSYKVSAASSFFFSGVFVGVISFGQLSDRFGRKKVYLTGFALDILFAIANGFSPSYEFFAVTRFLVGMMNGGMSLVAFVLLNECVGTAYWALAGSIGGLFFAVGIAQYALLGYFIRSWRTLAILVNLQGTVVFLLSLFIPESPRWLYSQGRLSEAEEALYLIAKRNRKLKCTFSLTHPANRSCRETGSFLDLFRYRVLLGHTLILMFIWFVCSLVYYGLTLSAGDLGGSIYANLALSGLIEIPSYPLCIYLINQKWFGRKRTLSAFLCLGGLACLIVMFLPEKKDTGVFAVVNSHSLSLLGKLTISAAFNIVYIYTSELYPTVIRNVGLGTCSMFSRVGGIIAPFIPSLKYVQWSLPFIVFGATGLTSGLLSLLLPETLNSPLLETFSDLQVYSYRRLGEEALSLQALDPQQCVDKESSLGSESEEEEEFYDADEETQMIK

| Structure (SMILES) | target | assay | test system | conditions | how to read | EC50 [µM] |
| --- | --- | --- | --- | --- | --- | --- |
| N[C@@H](CCP(=O)(O)O)C(=O)O | Metabotropic glutamate receptor 6 (Homo sapiens, UniProt O15303) | IP accumulation, agonist, HTRF | cells expressing chimeric Gq/i receptor | dark | – | 1.38 |
| C[C@@]1(O)CC[C@@]2(C)[C@@H](CC[C@@H]3[C@@H]2CC[C@]2(C)[C@@H]([N+](=O)[O-])CC[C@@H]32)C1 | GABAA receptor (rat) | enhancement of [3H]flunitrazepam binding, positive modulator | rat cerebral cortex homogenate | together with: GABA 1.0 µM | – | 0.0335 ± 0.0049 |
| CCCCCCCC/C=C\CCCCCCCC(=O)NCc1ccc(O)c(OC)c1 | TRPV1 (Homo sapiens, UniProt Q8NER1) | K+ efflux, agonist, BRET | HEK293T | – | – | 0.11 |
| CCCCCCCCCCCCCCCC(=O)OCC(CSCC(N)C(=O)NC(CO)C(=O)NCCCN(C)C)OC(=O)CCCCCCCCCCCCCCC (stereo not shown) | TLR2/TLR6 (Homo sapiens, UniProt O60603+Q9Y2C9) | reporter gene, agonist | HEK-Blue hTLR2/6 cells | – | – | 0.00031 ± 0.000308 |
| C[C@H]1O[C@@H](Oc2ccccc2[N+](=O)[O-])[C@H](O)[C@@H](O)[C@H]1O | lacI (Escherichia coli, UniProt P03023, D149C) | operator DNA binding, nitrocellulose filter binding | – | together with: O1 operator DNA | – | 30 ± 2 |
| COc1cc(C(=O)N2CC[C@@H](O)[C@@H](N)C2)cc2nc(-c3cc4ccccc4n3CC3CC3)n(C)c12 | ADRB2 (Homo sapiens, UniProt P07550) | agonist, TR-FRET | – | – | – | > 31.6 |
| O=C1c2ccccc2C(=O)C1C(=O)C(c1ccccc1)c1ccccc1 | NR1I2 (Homo sapiens, UniProt O75469) | – | – | – | – | 60.7 ± 16.9 |
| C[C@]12CC[C@H](O)C[C@@H]1CC[C@@H]1[C@@H]2CC[C@]2(C)[C@@H]([N+](=O)[O-])CC[C@@H]12 | GABAA receptor (rat) | enhancement of [3H]flunitrazepam binding, positive modulator | rat cerebral cortex homogenate | together with: GABA 1.0 µM | – | > 10 |
| OC[C@H]1O[C@@H](OCCc2ccccc2)[C@H](O)[C@@H](O)[C@H]1O | lacI (Escherichia coli, UniProt P03023, D149A) | operator DNA release, nitrocellulose filter binding | – | together with: O1 operator DNA | – | > 1000 |
| C[C@H](N)Cn1ncc2ccc3c(c21)CCCO3 | HTR2B (Homo sapiens, UniProt P41595) | agonist, aequorin | – | – | may be range | 0.00398 ± 0.00089 |
| c1ccc(C(NCCNC(c2ccccc2)c2ccccc2)c2ccccc2)cc1 | GRM7 (Homo sapiens, UniProt Q14831) | agonist, CellKey impedance | CHO cells expressing mGluR7 | – | – | 0.868 |
| C[n+]1ccc(-c2ccccc2)cc1 | Solute carrier family 22 member 15 (SLC22A15, Homo sapiens, UniProt Q8IZD6) | creatine efflux, activator, LC-MS/MS | human cells, HBSS | 30 min, 37 °C, together with: 1 mM and 10 mM creatine, butyrate, sodium | – | 300 |
| Nc1ccn([C@@H]2O[C@H](COP(=O)(O)OP(=O)(O)OP(=O)(O)O)[C@@H](O)[C@H]2O)c(=O)n1 | P2X purinoceptor 3 (P2RX3, Homo sapiens, UniProt P56373) | ion current, agonist, patch clamp | HEK293 expressing wild-type | – | – | 14.8 ± 3.9 |

Repeated from above:
| Structure (SMILES) | target | assay | test system | conditions | how to read | EC50 [µM] |
| --- | --- | --- | --- | --- | --- | --- |
| N[C@@H](CCP(=O)(O)O)C(=O)O | Metabotropic glutamate receptor 6 (Homo sapiens, UniProt O15303) | IP accumulation, agonist, HTRF | cells expressing chimeric Gq/i receptor | dark | – | 1.38 |
| C[C@@]1(O)CC[C@@]2(C)[C@@H](CC[C@@H]3[C@@H]2CC[C@]2(C)[C@@H]([N+](=O)[O-])CC[C@@H]32)C1 | GABAA receptor (rat) | enhancement of [3H]flunitrazepam binding, positive modulator | rat cerebral cortex homogenate | together with: GABA 1.0 µM | – | 0.0335 ± 0.0049 |
